Measurements pooled from the literature.
A part holds a random share of what one study measured. Changes are numbered by the printed parent chain.

Set 1
Target: ABI1, truncated, D143A, DHFR fusion (Arabidopsis thaliana)
Method: DHFR PCA, deep sequencing
Sample: yeast
Setting: methotrexate growth selection, single substitutions
Together with: (+)-ABA 200 µM
Baseline: wild-type fitted maximum
Direction: higher = stronger binding
Quantity: relative binding score
Starting sequence: PYL1, truncated, DHFR fusion (Arabidopsis thaliana); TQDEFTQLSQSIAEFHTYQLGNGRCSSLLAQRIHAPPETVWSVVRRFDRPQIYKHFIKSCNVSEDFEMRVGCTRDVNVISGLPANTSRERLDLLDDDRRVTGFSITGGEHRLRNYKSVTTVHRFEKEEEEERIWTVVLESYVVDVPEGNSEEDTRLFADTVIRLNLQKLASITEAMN; partner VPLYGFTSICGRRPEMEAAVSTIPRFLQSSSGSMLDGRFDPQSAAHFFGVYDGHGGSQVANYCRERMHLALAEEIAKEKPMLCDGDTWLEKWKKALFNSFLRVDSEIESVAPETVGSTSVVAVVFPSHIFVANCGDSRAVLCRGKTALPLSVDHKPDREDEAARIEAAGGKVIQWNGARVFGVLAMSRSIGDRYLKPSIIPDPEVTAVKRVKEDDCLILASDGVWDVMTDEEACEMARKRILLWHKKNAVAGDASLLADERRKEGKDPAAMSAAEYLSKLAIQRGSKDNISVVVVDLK
I162E: -5.72%
M68F: 93.5%
S11P: 95%
Y53M: 62.6%
G71A: 58.1%
I12C: 67.9%
E139W: 94.5%
T86A: 94.5%
D75P: 11.9%
V137P: 2.63%
I57C: 71.3%
S59I: 76%
L166Q: 54.6%
A175R: 100%
F124S: 97.1%
V118E: -19.3%

Set 2
Organism: Saccharomyces cerevisiae
Observed: pheromone growth arrest
Method: yeast competitive growth sequencing
Form: peptide
Strain: no Cln2 overexpression
Setting: peptide tiling library
Direction: direction not given
Quantity: enrichment score
SFLIEYEFLIPPSLKP: 0.000528
RDLFDCDFGDLTPLDF: 0.561
TSSAQRRLEIPSGGAD: -0.0378
TSPGPVLLHPSPSTTQ: -0.0118
SPREGHMMDALYAQVK: -0.0643
KRRLDLETDHQY: 0.0587
TRRRLFVENDSP: 0.898
KSKHEEEEWTDDDLVE: 0.835
KDDDKAWEYEERDRRS: -0.0673
ISRLFPPRTPGWHQLQ: -0.377
PLRKAKRARLCSSSSS: 1.7
AGSAKRRLFGEDPPKE: 0.248
PFSENVSAVQKLDFSD: 0.441
KPITLDTTDFQESFVT: 0.511
GQLVIPLDELTLDTSF: 0.982
ESSTVSEEDYFSSHRD: 0.485

Set 3
Target: Interferon regulatory factor 7, full length, phosphomimetic (IRF7, Homo sapiens, UniProt Q92985, residues 1-503, S471D/S472D/S475D/S476D/S477D/S483D/S484D/S487D)
Sequence of UniProt Q92985 (whole entry, unmodified, looked up): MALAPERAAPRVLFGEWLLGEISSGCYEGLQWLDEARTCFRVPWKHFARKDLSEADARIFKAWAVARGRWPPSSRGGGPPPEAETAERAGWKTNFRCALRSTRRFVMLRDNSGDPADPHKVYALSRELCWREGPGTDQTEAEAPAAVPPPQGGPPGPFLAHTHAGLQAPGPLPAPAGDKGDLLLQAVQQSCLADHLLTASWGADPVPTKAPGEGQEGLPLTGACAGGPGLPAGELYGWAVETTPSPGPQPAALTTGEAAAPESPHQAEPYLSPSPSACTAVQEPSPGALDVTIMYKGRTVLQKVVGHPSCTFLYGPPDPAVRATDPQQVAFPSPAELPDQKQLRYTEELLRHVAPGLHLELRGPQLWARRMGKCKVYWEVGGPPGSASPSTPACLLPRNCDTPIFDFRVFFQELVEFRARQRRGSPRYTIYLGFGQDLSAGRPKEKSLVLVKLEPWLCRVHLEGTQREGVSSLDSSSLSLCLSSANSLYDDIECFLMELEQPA
Method: protein-binding microarray
Form: double-stranded DNA, one strand shown
Sample: in vitro
Concentration: 2200 nM top
Setting: 60-bp whole probe
Together with: salmon DNA 0.4 mg/ml
Baseline: random background probes
Direction: higher = stronger binding
Quantity: fitted relative affinity
Constant ends, left off below: GCCTAGCAC … GTCTTGATTCGCTTGACGCTGCTG
TCATTTCTCTGTTCTAGACTGTGCTAG: 2.76 z-score
TTAGGTATCGTCTTTCGGTTAGTGCTA: 3.5 z-score
GACGGACTGGTCTATCGGGACGTGCTA: -0.911 z-score
GACGATTTCAGGCTGGAGACGTGCTAG: 0.355 z-score
GACGGACTGGGGTTTCGGAACGTGCTA: 0.831 z-score
TCAAGTTTCACTTTCCAACTGTGCTAG: 9.01 z-score
TGAGGTTTCGGGACTGGGTTAGTGCTA: 2.66 z-score
TCAAATCTCACTCTGTCACTGTGCTAG: 0.847 z-score
TTAGGACTGGGTTCCGGTTAGTGCTAG: -0.0588 z-score
AGTCCTGTCCAAGATGAGGAGTGCTAG: 0.204 z-score
TTAGGTTTCGGCTTCGGTTAGTGCTAG: 5.73 z-score
TAGAGGGAGTAAAGGAAAGAGTGCTAG: -1.64 z-score
CTTTCTGTCAGTTTTGAGCTGTGCTAG: 1.81 z-score
GACGGACTGGGGTATCGGTACGTGCTA: -0.604 z-score
TTAGGTGTCGACTTTCGGTTAGTGCTA: 5.57 z-score
GACAGACTGGACACTGGGGACGTGCTA: -0.715 z-score
GACGATTTCGGGTTTTGAGACGTGCTA: 3.68 z-score
GACGATTTCAGGATCGAGACGTGCTAG: 0.729 z-score
TCACTTCTAATATTCATACTGTGCTAG: 1.59 z-score

Set 4
Target: Histone acetyltransferase KAT6A, winged helix 2, GST fusion (KAT6A, Homo sapiens, UniProt Q92794, residues 85-181)
Method: protein binding microarray
Form: double-stranded DNA, one strand shown
Sample: in vitro
Concentration: not given
Setting: 8-mer, flanks averaged, mean of 2 arrays, mostly near background
Baseline: not given
Direction: higher = stronger binding
Quantity: E-score
Target sequence (chain): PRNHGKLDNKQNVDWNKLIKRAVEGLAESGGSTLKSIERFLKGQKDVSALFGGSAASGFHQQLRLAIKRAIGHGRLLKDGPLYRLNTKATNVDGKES
ACGATTAT: -0.215
TGACGACA: 0.121
ACCGGCGG: 0.146
ACGCCACC: -0.176
CATGTGCG: 0.0272
ACTGCTCT: 0.0906
TCCCAGGA: -0.0571
ACGCGTTG: 0.124
ACGGTCCA: -0.0775
CTTTCGGC: -0.0212
AAGCCCAC: 0.0503
ATCGAATG: -0.111
GACGCGTC: -0.029
GAGACATC: -0.0307
CGCAGCCC: 0.288
ACGCTCTC: -0.09
ACCTCAGA: -0.0618
CGGCTACG: 0.0838
CTGCGGAC: 0.178
CGACAGCA: 0.115
ACAGTACC: -0.0879
GGACCTAC: -0.0073

Set 5
Target: Ras GTPase-activating protein-binding protein 1, full length (G3BP1, Homo sapiens, UniProt Q13283)
Sequence of UniProt Q13283 (whole entry, looked up): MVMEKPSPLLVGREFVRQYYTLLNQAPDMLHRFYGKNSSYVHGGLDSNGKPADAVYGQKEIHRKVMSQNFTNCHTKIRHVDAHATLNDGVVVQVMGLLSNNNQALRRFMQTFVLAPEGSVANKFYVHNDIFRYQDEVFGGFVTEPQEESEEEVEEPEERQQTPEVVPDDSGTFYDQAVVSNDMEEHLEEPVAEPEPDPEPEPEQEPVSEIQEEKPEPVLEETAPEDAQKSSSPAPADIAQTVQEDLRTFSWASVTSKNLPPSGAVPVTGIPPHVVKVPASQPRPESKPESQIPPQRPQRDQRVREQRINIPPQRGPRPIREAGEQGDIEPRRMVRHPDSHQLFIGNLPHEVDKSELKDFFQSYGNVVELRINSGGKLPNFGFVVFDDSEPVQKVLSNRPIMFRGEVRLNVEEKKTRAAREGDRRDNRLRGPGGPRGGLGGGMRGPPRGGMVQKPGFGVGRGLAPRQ
Method: RNA Bind-n-Seq
Form: RNA
Sample: in vitro
Concentration: 200 nM
Setting: whole 134-nt RNA, ends assumed
Together with: 150 mM KCl
Baseline: input library
Direction: higher = stronger binding
Quantity: log2 enrichment
Constant ends, left off below: GGGAGUUCUACAGUCCGACGAUC … UGGAAUUCUCGGGUGUCAAGG
GCAGUAAGUAAAAACAAAUGGAAAUGCUUCGGAUAGUGGCAGGGGUGGGGGUUGCUAAGGAAAGGGUGGGAUGGGAGUGGGUAAAGAGUU: 0.537
CUCAAGUCCUGUGCUACACAUCGUAUGUACCGAAUCGGGGCGGGGCGGCGGGGAAAGUAUUAUGUUACGCCGUUCGGAUCUGCACUUCCA: 0.918
UGGCCCUGGUGUCAUGCGGGGAGGAAGAGGUGGCCUCAUGGAUCGUGGUGGUCCCGGUGGAAUGUUCAGAGGUGGCCGUGGUGGAGACAG: 0.00105
AAGUCCUGUGCUACACAUCGUAUGUACCGAAUCGGGAAAGGGGAAAGGGGAAAGGGAAAGUAUUAUGUUACGCCGUUCGGAUCUGCACUU: 0.312
CACAGACAACACGCACCCACACAGACACAGAGGGAAGGGGUUGGGAUGGGGACAAAAUGCACAGCAGGGCGGGGUAGGACCCCAGCCCCU: 1.94
UCCUGUGCUACACAUCGUAUGUACCGAAUCGGGUUUUUUGGGGUUUUUUGGUUUUUUGGAAAGUAUUAUGUUACGCCGUUCGGAUCUGCA: -0.412
GCAGGAAGUAAAAACAAAUGGAAAUGCUUCGGAUAGUGGCAGGGGUGGGGGUUGCUAAGGAAAGGGUGGGAUGGGAGUGGGUAUAGAGUU: 0.838
UCCUGUGCUACACAUCGUAUGUACCGAAUCGGGUUUUUUGGUUUUUUGGGUUUUUUGGGGAAAGUAUUAUGUUACGCCGUUCGGAUCUGC: -0.571
GUCCUGUGCUACACAUCGUAUGUACCGAAUCGGGGCCCCCGGCCCCCGGGCCCCCGGGGAAAGUAUUAUGUUACGCCGUUCGGAUCUGCA: -0.847

Repeated from above (set 1):
I12C: 67.9%
E139W: 94.5%
T86A: 94.5%
D75P: 11.9%
V137P: 2.63%
I57C: 71.3%
S59I: 76%
L166Q: 54.6%
A175R: 100%
F124S: 97.1%
V118E: -19.3%
